# Measurements from different studies.
# Chains of the proteins cited; added tags and fusions are not shown. A line that says so, or that is headed by a name, gives the form on record, which may keep a tag or linker. Residues count along the entry.
# UniProt P37136, 32-614 limits assumed: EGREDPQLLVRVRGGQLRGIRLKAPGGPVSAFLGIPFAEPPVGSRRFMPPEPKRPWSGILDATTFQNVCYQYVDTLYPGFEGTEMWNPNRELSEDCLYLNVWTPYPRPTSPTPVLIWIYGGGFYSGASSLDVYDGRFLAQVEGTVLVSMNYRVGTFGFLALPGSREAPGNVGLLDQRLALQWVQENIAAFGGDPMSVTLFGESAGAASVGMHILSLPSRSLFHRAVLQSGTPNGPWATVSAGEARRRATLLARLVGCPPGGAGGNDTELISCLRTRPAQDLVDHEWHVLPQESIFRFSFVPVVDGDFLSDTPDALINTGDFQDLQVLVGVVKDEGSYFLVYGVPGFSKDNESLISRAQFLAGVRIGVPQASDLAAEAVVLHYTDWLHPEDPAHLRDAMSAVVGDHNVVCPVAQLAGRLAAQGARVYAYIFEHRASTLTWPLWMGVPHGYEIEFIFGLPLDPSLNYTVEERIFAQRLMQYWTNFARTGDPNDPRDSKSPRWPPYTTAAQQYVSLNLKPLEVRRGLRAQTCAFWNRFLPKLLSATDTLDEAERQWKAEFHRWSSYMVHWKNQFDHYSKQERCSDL
# UniProt P08510, 1-655 with tags or gaps DEL6-46: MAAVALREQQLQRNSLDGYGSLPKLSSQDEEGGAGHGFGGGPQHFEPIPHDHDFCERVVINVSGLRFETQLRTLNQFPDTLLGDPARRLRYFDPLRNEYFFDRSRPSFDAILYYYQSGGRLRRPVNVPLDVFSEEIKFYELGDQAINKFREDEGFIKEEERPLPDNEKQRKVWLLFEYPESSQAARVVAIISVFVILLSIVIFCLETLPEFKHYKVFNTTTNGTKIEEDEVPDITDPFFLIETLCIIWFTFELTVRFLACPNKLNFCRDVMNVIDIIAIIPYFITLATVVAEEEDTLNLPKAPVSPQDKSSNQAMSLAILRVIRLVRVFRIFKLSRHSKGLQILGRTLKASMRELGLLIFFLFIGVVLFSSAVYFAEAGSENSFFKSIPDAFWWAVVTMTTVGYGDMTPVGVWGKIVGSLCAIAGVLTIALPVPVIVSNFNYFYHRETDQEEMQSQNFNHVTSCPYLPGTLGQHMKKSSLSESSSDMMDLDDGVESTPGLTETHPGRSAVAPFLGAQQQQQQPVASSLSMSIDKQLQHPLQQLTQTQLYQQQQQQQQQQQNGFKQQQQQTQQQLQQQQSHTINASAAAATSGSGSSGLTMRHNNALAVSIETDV
# Values joined by “and” are separate records of one study, mostly repeats; a detail may differ. Numbers after ± are the reported error.
SMILES,target or system,test,test system,conditions,scale,endpoint,value
CC[C@H](C)[C@H](NC(=O)[C@H](C)NC(=O)[C@H](CCC(=O)O)NC(=O)[C@H](CCC(=O)O)NC(=O)[C@H](CC(C)C)NC(=O)[C@H](CCCCN)NC(=O)[C@H](CCCCN)NC(=O)[C@H](CCSC)NC(=O)[C@H](CCC(=O)O)NC(=O)[C@H](Cc1ccc(O)cc1)NC(=O)[C@H](CCC(=O)O)NC(=O)[C@H](CC(C)C)NC(=O)[C@H](CC(=O)O)NC(=O)[C@H](CC(C)C)NC(=O)[C@H](Cc1ccccc1)NC(=O)[C@@H](NC(=O)[C@@H](NC(=O)[C@H](CC(N)=O)NC(=O)[C@@H](NC(=O)[C@H](CCC(N)=O)NC(=O)[C@H](CC(=O)O)NC(=O)[C@H](CC(C)C)NC(=O)[C@@H](N)CO)[C@@H](C)CC)C(C)C)[C@@H](C)O)C(=O)N[C@@H](CCCCN)C(=O)N[C@@H](CCCCN)C(=O)N[C@@H](CC(C)C)C(=O)N[C@@H](CCC(=O)O)C(=O)N[C@@H](CCC(=O)O)C(=O)N[C@@H](CO)C(=O)N[C@@H](Cc1ccc(O)cc1)C(=O)N[C@H](C(=O)N[C@@H](CC(=O)O)C(=O)N[C@@H](CC(C)C)C(=O)N[C@@H](CCCCN)C(=O)N[C@@H](CCC(=O)O)C(=O)N[C@@H](CC(C)C)C(=O)O)[C@@H](C)CC,SARS-CoV-2 Delta pseudovirus,"pseudovirus infection, inhibitor, luciferase",Caco-2,24 h,,IC50,441 nM
O=C(NC1CCN(c2ncnc3[nH]cnc23)CC1)c1cccc(NS(=O)(=O)c2ccc([N+](=O)[O-])cc2)c1,SARS-CoV-2,,Wuhan-Hu-1,22.22 µM,reference: untreated infected cells,relative infection,22.2%
O=C(Nc1cc(F)cc(F)c1)N1CCCC2(C1)Nc1cccnc1N=C2NC1CCCC1 (stereo not drawn),HEK293,"cell viability, CellTiter-Glo",,72 h,,CC50,> 70000 nM
O=C(NC1CCN(c2ncnc3[nH]cnc23)CC1)c1cccc(S(=O)(=O)Nc2ccc(Cl)cc2)c1,SARS-CoV-2,,Wuhan-Hu-1,22.22 µM,reference: untreated infected cells,relative infection,27.7%
Cc1cc(C(=O)N[C@@H](Cc2cccc3ccccc23)C(=O)N[C@@H](CC(C)C)C(=O)N[C@H](C=O)C[C@@H]2CCCNC2=O)no1,human rhinovirus 16,"cytopathic effect, SRB",MRC-5,3 days,,EC50,200 ± 200 nM
O=S(=O)(c1cccs1)N1CCCC2(C1)Nc1cccnc1N=C2NC1CCCC1 (stereo not drawn),HEK293,"cell viability, CellTiter-Glo",,72 h,,CC50,> 70000 nM
CC[C@H](C)[C@H](NC(=O)[C@H](C)NC(=O)[C@H](CCC(=O)O)NC(=O)[C@H](CCC(=O)O)NC(=O)[C@H](CC(C)C)NC(=O)[C@H](CCCCN)NC(=O)[C@H](CCCCN)NC(=O)[C@H](CCSC)NC(=O)[C@H](CCC(=O)O)NC(=O)[C@H](Cc1ccc(O)cc1)NC(=O)[C@H](CCC(=O)O)NC(=O)[C@H](CC(C)C)NC(=O)[C@H](CC(=O)O)NC(=O)[C@H](CC(C)C)NC(=O)[C@H](Cc1ccccc1)NC(=O)[C@H](Cc1ccc(O)cc1)NC(=O)[C@@H](NC(=O)[C@H](CC(N)=O)NC(=O)[C@@H](NC(=O)[C@H](CCC(N)=O)NC(=O)[C@H](CC(=O)O)NC(=O)[C@H](CC(C)C)NC(=O)[C@@H](N)CO)[C@@H](C)CC)C(C)C)C(=O)N[C@@H](CCCCN)C(=O)N[C@@H](CCCCN)C(=O)N[C@@H](CC(C)C)C(=O)N[C@@H](CCC(=O)O)C(=O)N[C@@H](CCC(=O)O)C(=O)N[C@@H](C)C(=O)N[C@@H](Cc1ccc(O)cc1)C(=O)N[C@H](C(=O)N[C@@H](CC(=O)O)C(=O)N[C@@H](CC(C)C)C(=O)N[C@@H](CCCCN)C(=O)N[C@@H](CCC(=O)O)C(=O)N[C@@H](CC(C)C)C(=O)O)[C@@H](C)CC,SARS-CoV-2 JN.1 pseudovirus,"pseudovirus infection, inhibitor, luciferase",Caco-2,"24 h, dual mutations",,IC50,38.1 nM
COc1ccc(S(=O)(=O)Nc2cccc(C(=O)NC3CCN(c4ncnc5[nH]cnc45)CC3)c2)cc1,SARS-CoV-2,,Wuhan-Hu-1,0.03048 µM,reference: untreated infected cells,relative infection,78.1%
C[C@@H](O)[C@@H]1NC(=O)[C@@H]2CSSC[C@H](N)C(=O)N[C@@H](CCCCN)C(=O)N[C@@H](CCCNC(=N)N)C(=O)N[C@@H](CCCCN)C(=O)NCC(=O)N[C@@H](CO)C(=O)N[C@@H](CO)C(=O)N[C@H]3CSSC[C@H](NC(=O)[C@H](CO)NC(=O)CNC1=O)C(=O)N[C@@H](CCCNC(=N)N)C(=O)N[C@@H](CC(N)=O)C(=O)NCC(=O)N[C@@H](CCCCN)C(=O)N[C@H](C(N)=O)CSSC[C@H](NC(=O)[C@H](CC(=O)O)NC(=O)[C@H](Cc1ccc(O)cc1)NC(=O)[C@H](CO)NC(=O)[C@H]([C@@H](C)O)NC(=O)[C@H](CCCNC(=N)N)NC(=O)[C@H](CCCNC(=N)N)NC3=O)C(=O)N2,,,Kunming mice,"intracerebroventricular, 9 µg/kg, 0.5 h",,rotarod time,17 ± 19 s
CC(C)[C@H]1CC[C@@H](N2CCC3(CC2)C(=O)NCN3c2ccccc2)CC1,,twitch contraction,"mouse, mouse vas deferens",,reference: compound over N/OFQ EC50,concentration ratio,1.7
CC1=C[C@@H](CN2CCN(c3ncccn3)CC2)[C@H](C(C)C)C[C@H]1Cc1nnc(Cc2c[nH]c3ccccc23)o1,SARS-CoV-2 nsp5 C145A,"reporter gene, cell-based secondary screen",,,,luciferase signal,110 ± 9.1%
CCOP(=O)(OCC)ON1C(=O)c2cccc3cccc(c23)C1=O,"Ache (Rattus norvegicus, UniProt P37136)","enzyme activity, inhibitor, discontinuous Ellman","rat, postnatal day 70, rat skeletal muscle homogenate","15 min, 37 °C",,IC50,41 nM
CC[C@H](C)[C@H](NC(=O)[C@H](C)NC(=O)[C@H](CCC(=O)O)NC(=O)[C@H](CCC(=O)O)NC(=O)[C@H](CC(C)C)NC(=O)[C@H](CCCCN)NC(=O)[C@H](CCCCN)NC(=O)[C@H](CCSC)NC(=O)[C@H](CCC(=O)O)NC(=O)[C@H](Cc1ccc(O)cc1)NC(=O)[C@H](CCC(=O)O)NC(=O)[C@H](CC(C)C)NC(=O)[C@H](CC(=O)O)NC(=O)[C@H](CC(C)C)NC(=O)[C@H](Cc1ccccc1)NC(=O)[C@H](Cc1ccc(O)cc1)NC(=O)[C@@H](NC(=O)[C@H](CC(N)=O)NC(=O)[C@@H](NC(=O)[C@H](CCC(N)=O)NC(=O)[C@H](CC(=O)O)NC(=O)[C@H](CC(C)C)NC(=O)[C@@H](N)CO)[C@@H](C)CC)C(C)C)C(=O)N[C@@H](CCCCN)C(=O)N[C@@H](CCCCN)C(=O)N[C@@H](CC(C)C)C(=O)N[C@@H](CCC(=O)O)C(=O)N[C@@H](CCC(=O)O)C(=O)N[C@@H](CO)C(=O)N[C@@H](Cc1ccc(O)cc1)C(=O)N[C@H](C(=O)N[C@@H](CC(=O)O)C(=O)N[C@@H](CC(C)C)C(=O)N[C@@H](CCCCN)C(=O)N[C@@H](CCC(=O)O)C(=O)N[C@@H](CC(C)C)C(=O)O)[C@@H](C)CC,SARS-CoV-2 EG.5.1 pseudovirus,"pseudovirus infection, inhibitor, luciferase",Caco-2,24 h,,IC50,171 nM
CC[C@H](C)[C@@H]1NC(=O)[C@H](CCCNC(=N)N)NC(=O)[C@@H](N)CSSC[C@@H]2NC(=O)[C@@H]3CSSC[C@@H](C(=O)N[C@H](C(=O)O)C(C)C)NC(=O)[C@H](CCCCN)NC(=O)[C@H](CC(N)=O)NC(=O)[C@H](Cc4ccccc4)NC(=O)[C@H](CCCNC(=N)N)NC(=O)[C@H](CC(N)=O)NC(=O)[C@H](CSSC[C@H](NC(=O)[C@H](CCCCN)NC(=O)[C@H](CCC(N)=O)NC(=O)[C@H](CC(N)=O)NC(=O)[C@@H]4C[C@@H](O)CN4C1=O)C(=O)N[C@@H](Cc1ccccc1)C(=O)N[C@@H](CCC(N)=O)C(=O)N[C@@H](Cc1c[nH]cn1)C(=O)N[C@@H](CC(C)C)C(=O)N[C@@H](CC(=O)O)C(=O)N[C@@H](CC(=O)O)C(=O)N3)NC(=O)[C@H](CCCCN)NC(=O)[C@H](CCCNC(=N)N)NC(=O)[C@H](CO)NC2=O,"Sh (Drosophila melanogaster, UniProt P08510, del6-46)","potassium current, outside-out patch clamp",,"chronic application, zero voltage, internal K 100, with: 1 mM TEA",,Kd,480 ± 60 nM
CC#Cc1ccc2c(=O)[nH]nc(Cc3ccc(F)c(C(=O)N4CCN(c5ccc(C#N)cn5)CC4)c3)c2c1,PARP family members,PASTA,,,reference: other PARPs over PARP7,selectivity ratio,> 50 fold
Cc1ccc(S(=O)(=O)Nc2cccc(C(=O)NC3CCN(c4ncnc5[nH]cnc45)CC3)c2)cc1,monkeypox virus E1/E12,,,0.7812 µM,,inhibition,14.4% and 13.9%
CCCN(C)Cc1onc(-c2cccc(Cl)c2)c1-c1ccnc(N[C@@H]2CCN(C(=O)c3ccn(C)n3)C2)n1,Plasmodium falciparum,parasite growth,3D7 A10,"72 h, asexual blood stage",,EC50,11700 ± 6730 nM
CC[C@H](C)[C@H](NC(=O)[C@H](C)NC(=O)[C@H](CCC(=O)O)NC(=O)[C@H](CCC(=O)O)NC(=O)[C@H](CC(C)C)NC(=O)[C@H](CCCCN)NC(=O)[C@H](CCCCN)NC(=O)[C@H](CCSC)NC(=O)[C@H](CCC(=O)O)NC(=O)[C@H](Cc1ccc(O)cc1)NC(=O)[C@H](CCC(=O)O)NC(=O)[C@H](CC(C)C)NC(=O)[C@H](CC(=O)O)NC(=O)[C@H](CC(C)C)NC(=O)[C@H](Cc1ccccc1)NC(=O)[C@@H](NC(=O)[C@@H](NC(=O)[C@H](CC(N)=O)NC(=O)[C@@H](NC(=O)[C@H](CCC(N)=O)NC(=O)[C@H](CC(=O)O)NC(=O)[C@H](CC(C)C)NC(=O)[C@H](CO)NC(=O)[C@H](CC(C)C)NC(=O)[C@H](CC(=O)O)NC(=O)[C@@H]1CCCN1C(=O)[C@H](C)N)[C@@H](C)CC)C(C)C)[C@@H](C)O)C(=O)N[C@@H](CCCCN)C(=O)N[C@@H](CCCCN)C(=O)N[C@@H](CC(C)C)C(=O)N[C@@H](CCC(=O)O)C(=O)N[C@@H](CCC(=O)O)C(=O)N[C@@H](CO)C(=O)N[C@@H](Cc1ccc(O)cc1)C(=O)N[C@H](C(=O)N[C@@H](CC(=O)O)C(=O)N[C@@H](CC(C)C)C(=O)N[C@@H](CCCCN)C(=O)N[C@@H](CCC(=O)O)C(=O)N[C@@H](CC(C)C)C(=O)O)[C@@H](C)CC,SARS-CoV-2 Gamma pseudovirus,"pseudovirus infection, inhibitor, luciferase",Caco-2,24 h,,IC50,432 nM
O=C1Cc2ccccc2N1C1CCN([C@@H]2CC[C@H]3CCCc4cccc2c43)CC1,nociceptin receptor (human),BRET,,,"reference: N/OFQ as unbiased standard, G protein over β-arrestin 2",bias factor,0.46
CC[C@H](C)[C@H](NC(=O)[C@H](C)NC(=O)[C@H](CCC(=O)O)NC(=O)[C@H](CCC(=O)O)NC(=O)[C@H](CC(C)C)NC(=O)[C@H](CCCCN)NC(=O)[C@H](CCCCN)NC(=O)[C@H](CCSC)NC(=O)[C@H](CCC(=O)O)NC(=O)[C@H](Cc1ccc(O)cc1)NC(=O)[C@H](CCC(=O)O)NC(=O)[C@H](CC(C)C)NC(=O)[C@H](CC(=O)O)NC(=O)[C@H](CC(C)C)NC(=O)[C@H](Cc1ccccc1)NC(=O)[C@H](Cc1ccccc1)NC(=O)[C@@H](NC(=O)[C@H](CC(N)=O)NC(=O)[C@@H](NC(=O)[C@H](CCC(N)=O)NC(=O)[C@H](CC(=O)O)NC(=O)[C@H](CC(C)C)NC(=O)[C@@H](N)CO)[C@@H](C)CC)C(C)C)C(=O)N[C@@H](CCCCN)C(=O)N[C@@H](CCCCN)C(=O)N[C@@H](CC(C)C)C(=O)N[C@@H](CCC(=O)O)C(=O)N[C@@H](CCC(=O)O)C(=O)N[C@@H](C)C(=O)N[C@@H](Cc1ccc(O)cc1)C(=O)N[C@H](C(=O)N[C@@H](CC(=O)O)C(=O)N[C@@H](CC(C)C)C(=O)N[C@@H](CCCCN)C(=O)N[C@@H](CCC(=O)O)C(=O)N[C@@H](CC(C)C)C(=O)O)[C@@H](C)CC,SARS-CoV-2 Beta pseudovirus,"pseudovirus infection, inhibitor, luciferase",Caco-2,"24 h, dual mutations",,IC50,379 nM
Cc1ccccc1S(=O)(=O)Nc1cccc(C(=O)NC2CCN(c3ncnc4[nH]cnc34)CC2)c1,SARS-CoV-2,,Wuhan-Hu-1,22.22 µM,reference: untreated infected cells,relative infection,31.8%
